Published values gathered from unrelated publications.
Values joined by “and” are separate records of one study, mostly repeats; a detail may differ. ± gives the spread as reported.
U2AF2: U2AF2 148-342 (Homo sapiens, UniProt P26368)
UniProt P26368, sequence (whole entry, looked up): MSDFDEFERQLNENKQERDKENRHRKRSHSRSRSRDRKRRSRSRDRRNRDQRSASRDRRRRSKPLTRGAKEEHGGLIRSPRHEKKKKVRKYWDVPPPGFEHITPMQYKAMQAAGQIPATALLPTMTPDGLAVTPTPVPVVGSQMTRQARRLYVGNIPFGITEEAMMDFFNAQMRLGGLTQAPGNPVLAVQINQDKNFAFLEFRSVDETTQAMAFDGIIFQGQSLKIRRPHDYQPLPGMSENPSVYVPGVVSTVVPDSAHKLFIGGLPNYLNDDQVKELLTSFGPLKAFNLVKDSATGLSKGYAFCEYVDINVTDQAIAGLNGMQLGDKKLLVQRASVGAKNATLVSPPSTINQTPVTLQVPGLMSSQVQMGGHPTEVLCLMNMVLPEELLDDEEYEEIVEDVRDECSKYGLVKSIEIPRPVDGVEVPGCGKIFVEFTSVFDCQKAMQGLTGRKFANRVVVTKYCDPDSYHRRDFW
B1: human PHGDH; sequence looked up; chain AFANLRKVLISDSLDPCCRKILQDGGLQVVEKQNLSKEELIAELQDCEGLIVRSATKVTADVINAAEKLQVVGRAGTGVDNVDLEAATRKGILVMNTPNGNSLSAAELTCGMIMCLARQIPQATASMKDGKWERKKFMGTELNGKTLGILGLGRIGREVATRMQSFGMKTIGYDPIISPEVSASFGVQQLPLEEIWPLCDFITVHTPLLPSTTGLLNDNTFAQCKKGVRVVNCARGGIVDEGALLRALQSGQCAGAALDVFTEEPPRDRALVDHENVISCPHLGASTKEAQSRCGEEIAVQFVDMVKGKSLTGVVNAQALTSAFSPHTKPWIGLAEALGTLMRAWAGSPKGTIQVITQGTSLKNAGNCLSPAVIVGLLKEASKQADVNLVNAKLLVKEAGLNVTTSHSPAAPGEQGFGECLLAVALAGAPYQAVGLVQGTTPVLQGLNGAVFRPEVPLRRDLPLLLFRTQTSDPAMLPTMIGLLAEAGVRLLSYQTSLVSDGETWHVMGISSLLPSLEAWKQHVTEAFQFHF
UniProt Q00535, sequence (whole entry, looked up): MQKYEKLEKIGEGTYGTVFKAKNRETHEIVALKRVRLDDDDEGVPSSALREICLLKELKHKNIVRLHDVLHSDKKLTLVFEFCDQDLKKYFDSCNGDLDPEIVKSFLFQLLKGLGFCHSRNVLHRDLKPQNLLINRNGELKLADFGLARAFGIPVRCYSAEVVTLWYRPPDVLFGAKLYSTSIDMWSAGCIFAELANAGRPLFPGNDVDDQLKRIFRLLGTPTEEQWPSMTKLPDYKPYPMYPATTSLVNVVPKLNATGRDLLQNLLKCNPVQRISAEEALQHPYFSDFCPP
UniProt P13393, sequence (whole entry, looked up): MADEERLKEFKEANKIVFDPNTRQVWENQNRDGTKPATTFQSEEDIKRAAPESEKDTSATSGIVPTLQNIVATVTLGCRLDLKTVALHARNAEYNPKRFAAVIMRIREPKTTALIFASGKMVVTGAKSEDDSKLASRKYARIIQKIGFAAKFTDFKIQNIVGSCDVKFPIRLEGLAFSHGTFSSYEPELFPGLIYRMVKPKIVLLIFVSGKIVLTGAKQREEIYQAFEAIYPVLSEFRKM
UniProt P29055, sequence (whole entry, looked up): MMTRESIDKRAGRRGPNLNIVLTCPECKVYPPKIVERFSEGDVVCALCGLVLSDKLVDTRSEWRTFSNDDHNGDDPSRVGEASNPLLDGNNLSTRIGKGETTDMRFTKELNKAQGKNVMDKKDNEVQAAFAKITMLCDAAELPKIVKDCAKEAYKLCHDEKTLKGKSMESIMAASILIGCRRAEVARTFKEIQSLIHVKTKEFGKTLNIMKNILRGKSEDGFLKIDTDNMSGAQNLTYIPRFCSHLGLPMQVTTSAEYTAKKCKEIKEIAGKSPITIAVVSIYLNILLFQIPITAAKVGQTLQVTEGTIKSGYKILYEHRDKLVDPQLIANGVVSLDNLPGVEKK

Molecule | tested on | test | test system | conditions | scale | endpoint | value
GSGAGIATEV | construct, MBP fusion, human SCRIB, PDZ 3-4 | automated holdup | peptide, purified PDZ protein | concentration not given, unit not given | reference: biotin control resin, higher = stronger binding | binding intensity | 0.135
TTCCTGAAGGGGGGCTATAAAAGGGGGTGGGGGCGTCAAGTCAATCGGTCC (dsDNA; 5'-amino-C6 primer) | SPT15 full length assumed (Saccharomyces cerevisiae, UniProt P13393) | array | double-stranded DNA, one strand shown | TBP alone | – | Kd | 12.4 ± 0.75 nM
B1 (human PHGDH) | CYB5R4 knockout human cells | PP4 interaction, 3xFLAG-PP4C IP-MS | – | concentration not given | reference: CYB5R4 KO over parental | log2 fold change | -0.84
KEAFWDRCLSVINLMSSKMAQINA | Cyclin-dependent kinase 5, with p25 (CDK5, Homo sapiens, UniProt Q00535) | phosphotransferase activity, radiometric | peptide | concentration not given, 10% DMSO, with: histone substrate | reference: p5-WT peptide | activity change | 68%
Peginesatide | UT7/EPO | tyrosine phosphorylation, LC-MS/MS phosphoproteomics, trypsin, measured: STAT5A tyrosine 694 | – | 10 nM, 15 min, with: 10 U/mL EPO | reference: vehicle | phosphorylation level | 28.2 fold
DNA-PKcs (human) | CYB5R4 knockout human cells | PP6 interaction, 3xFLAG-PP6C IP-MS | – | concentration not given | reference: CYB5R4 KO over parental | log2 fold change | 0.52
CUUGUAUCU (ssRNA) | U2AF2 | sequencing of bound RNA | RNA | motif only | – | Kd | 2990 nM
proteasome subunit beta-1 (human) | CYB5R4 knockout human cells | PP4 interaction, 3xFLAG-PP4C IP-MS | – | concentration not given | reference: CYB5R4 KO over parental | log2 fold change | 1.45
KDECVIATEV | construct, MBP fusion, human SCRIB, PDZ 3-4 | automated holdup | peptide, crude extract | concentration not given, corrected by standard peak, unit not given | reference: biotin control resin, higher = stronger binding | binding intensity | 0.0689
GUUCAGUGU (ssRNA) | U2AF2 | sequencing of bound RNA | RNA | motif only | – | Kd | 3620 nM
colistin | Pseudomonas aeruginosa | – | clinical isolate RKI 81/10 | – | – | MIC | ≤ 1 µg/mL
milbemycin oxime | Saccharomyces cerevisiae | cell growth | Pdr5 deleted, Cdr1 overexpressed | 2^-5.381 µg/mL | – | OD600 | 0.971 and 0.97 and 1
liraglutide | – | – | Wistar rat, female, diet-induced obese, blood, fasted | subcutaneous, dose not given, after 4 weeks treatment | – | serum leptin | 24.3 ± 2 ng/mL
human filamin B | PP6C (human) | co-immunoprecipitation, IP-MS | CYB5R4 knockout cells | concentration not given | reference: CYB5R4 knockout over parental | log2 fold change | -0.19
ATTCCAGTATGGCGTATAAATAAAGGCGAGGAGAATCAAGTCAATCGGTCC (dsDNA; 5'-amino-C6 primer) | SUA7 full length assumed (Saccharomyces cerevisiae, UniProt P29055) | array | double-stranded DNA, one strand shown | TFIIB alone | – | Kd | 0.98 ± 0.29 nM
GGWVEKETYY | construct, MBP fusion, human SCRIB, PDZ 3-4 | automated holdup | peptide, crude extract | concentration not given, uncorrected, unit not given | reference: biotin control resin, higher = stronger binding | binding intensity | 0.0759
epoetin alfa | UT7/EPO | RT-qPCR, measured: PHLDA1 | – | concentration not given, 90 min, normalized to HPRT1 | reference: vehicle | mRNA level | 4.1 fold

Some of these lines once more:
Molecule | tested on | test | test system | conditions | scale | endpoint | value
GGWVEKETYY | construct, MBP fusion, human SCRIB, PDZ 3-4 | automated holdup | peptide, crude extract | concentration not given, uncorrected, unit not given | reference: biotin control resin, higher = stronger binding | binding intensity | 0.0759
KDECVIATEV | construct, MBP fusion, human SCRIB, PDZ 3-4 | automated holdup | peptide, crude extract | concentration not given, corrected by standard peak, unit not given | reference: biotin control resin, higher = stronger binding | binding intensity | 0.0689
GUUCAGUGU (ssRNA) | U2AF2 | sequencing of bound RNA | RNA | motif only | – | Kd | 3620 nM
